Published values collected from several papers.
Each line is one published result; not all experiments were run side by side. ± gives the spread as reported.

O=C(Nc1ccccc1)C1CCN(C(=O)Oc2cccnc2)CC1  subjects with nervous system disorders (adverse event reporting; healthy women; oral, 20 mg, 7 days): 21.4%
CN1CCN(c2ccc(Nc3nccc(-c4ccc(F)cc4)n3)cc2C(F)(F)F)CC1  toxicity (zebrafish embryos; 25 µM, 5 d): 0%
Cc1cc(C)c(CNC(=O)c2cc(Cl)c3c(c2C)O[C@@](C)([C@H]2CC[C@H](N(C)C)CC2)O3)c(=O)[nH]1  Diarrhoea incidence (human, relapsed/refractory NHL; concentration not given, treatment-related TEAEs, grade 5): 0%
c1cc2ccc3cccc4ccc(c1)c2c34  log K(PDMS-water) (fresh water; 12 (unit not given), 20 °C, S30-1 sampler, 30 µm): 4.3 ± 0.05
NCCCC[C@@H]1NC(=O)[C@@H](Cc2c[nH]c3ccccc23)NC(=O)[C@H](c2ccccc2)NC(=O)[C@@H]2C[C@@H](OC(=O)NCCN)CN2C(=O)[C@H](Cc2ccccc2)NC(=O)[C@H](Cc2ccc(OCc3ccccc3)cc2)NC1=O  placebo-corrected QTcF change (healthy volunteers, female; 1950 µg twice daily, 1.0 h, post hoc): 6.2 ms
Clc1cc(Cl)c(-c2c(Cl)c(Cl)cc(Cl)c2Cl)cc1Cl  literature range factor (polyethylene-water partitioning; PCB compilation; relative to: maximum over minimum K): 1.2
C[C@@H]1OC(=O)NN=C1c1ccc(-c2ccc(F)cc2)c(C(F)(F)F)c1  patients with adverse event (phase I trial, refers to: abdominal distension worst grade 1; human patients; 5 mg loading then 0.25 mg daily): 0%
CN1CC[C@@H](c2c(O)cc(O)c3c(=O)cc(-c4ccc(C(F)(F)F)cc4Cl)oc23)[C@@H]1CO  patients with adverse event (refers to: Thrombocytopenia; relapsed B-cell malignancies; oral, 100 mg, grade 3-4, intermittent dosing): 0%
O.O.O.O.O.O.[Cl-].[Cl-].[Co+2]  reticulocytes (Crl:CD(SD) rat female, blood; oral, 7.44 mg Co/kg/day, 90 days; relative to: red blood cells): 15.4%
CC(C)C[C@H](NC(=O)[C@H](CCCCN)NC(=O)OCC1c2ccccc2-c2ccccc21)C(=O)N[C@H](C(=O)N[C@@H](Cc1ccccc1)C(=O)N[C@@H](Cc1ccccc1)C(=O)N[C@@H](CCCCN)C(=O)NCC(=O)N[C@@H](Cc1ccccc1)C(=O)N[C@@H](C)C(=O)N[C@@H](Cc1c[nH]c2ccccc12)C(=O)N[C@@H](CC(N)=O)C(=O)N[C@H](C(=O)N[C@H]1CSSC[C@@H](C(=O)N[C@@H](Cc2c[nH]cn2)C(=O)N[C@@H](CCCNC(=N)N)C(=O)N[C@@H](CCCNC(=N)N)C(=O)N[C@@H](C)C(=O)N[C@@H](CC(N)=O)C(N)=O)NC(=O)[C@H](C(C)C)NC(=O)[C@H](CCCNC(=N)N)NC(=O)[C@H](C(C)C)NC(=O)CNC(=O)[C@H](CC(N)=O)NC(=O)[C@H](CCCNC(=N)N)NC(=O)[C@H](Cc2ccc(O)cc2)NC(=O)[C@H](C(C)C)NC1=O)C(C)C)C(C)C  lymphocytes (ICR mouse, blood; intramammary, 10 mg/kg, day 5, 3 d dosing): 72.7 ± 1.66%
N=C(N)NCCC[C@@H](NC(=O)[C@@H](N)Cc1ccccc1)C(=O)N[C@@H](Cc1ccccc1)C(=O)N[C@@H](CCCCN)C(N)=O  AUC(0-inf) (early Huntington's disease patients, plasma; subcutaneous, 15 mg daily, day 7, median): 3330 ng·h/mL
Cc1cccc(Cn2nc(C3CC3)c3c(NC(=O)c4cnc5cc(OCCN6CCN(C)CC6)ccn45)cccc32)n1  adverse events incidence (refers to: Diarrhea; human pancreatic ductal adenocarcinoma; oral, dose not given, all-causality): 14.8%
CCc1ccc(CC/C=C/c2ccc3c(c2)C(=O)CC3)cc1  Mononuclear percentage (Sprague-Dawley rat, female; oral, 30 mg/kg/day, 14 days): 2.1%
COc1ccc(-c2c(-c3ccc(C#N)c(F)c3)nc(N3CCC(N)CC3)n(C)c2=O)cc1F  serious adverse event incidence (refers to: Hypokalemia; human patients; oral, dose not given, dose escalation, NG): 2%
COc1ccc(F)cc1C(=O)NCc1ccc(-c2nn([C@@H](C)C(F)(F)F)c(N)c2C(N)=O)cc1  tmax (human, plasma; oral, 200 mg once daily): 3 h
Fc1ccc([C@@H]2CCNC[C@H]2COc2ccc3c(c2)OCO3)cc1  List of Complaints score (refers to: Forgetfulness; healthy volunteers; oral, dose not given, given -1 h relative to LSD, together with: LSD; direction not given): 0 score
C[C@]1(O)C[C@@](N)(c2ccc(-c3nc4n(c3-c3ccccc3)COc3ccncc3-4)cc2)C1  patients with Rash TEAE (human, advanced or metastatic solid tumours; 16 mg once daily, dose-response cohort): 0%
CCN1CCN(Cc2ccc(Nc3ncc(F)c(-c4cc(F)c5nc6n(c5c4)[C@H](C)CCC6)n3)nc2)CC1  Hyponatremia incidence, grade ≥3 (advanced solid tumour patients; dose not given, Phase Ia monotherapy): 0%
CC(C)C[C@@H]1NC(=O)CNC(=O)[C@H](CC(N)=O)NC(=O)[C@H](CCCNC(=N)N)NC(=O)[C@H]([C@@H](C)O)NC(=O)[C@@H]2CSSC[C@@H]3NC(=O)[C@H]([C@@H](C)O)NC(=O)CNC(=O)CNC(=O)[C@H](C(C)C)NC(=O)[C@@H]4CSSC[C@H](NC(=O)[C@H](CCCCN)NC(=O)[C@H](CSSC[C@H](NC(=O)[C@H](C(C)C)NC(=O)[C@@H]5CCCN5C1=O)C(=O)NCC(=O)N[C@@H](CCC(=O)O)C(=O)N[C@@H]([C@@H](C)O)C(=O)N4)NC(=O)CNC(=O)[C@@H]1CCCN1C(=O)[C@H]([C@@H](C)O)NC(=O)[C@H](CC(N)=O)NC3=O)C(=O)N[C@@H](CO)C(=O)N[C@@H](Cc1c[nH]c3ccccc13)C(=O)N1CCC[C@H]1C(=O)N[C@@H](C(C)C)C(=O)N2  remaining peptide (HPLC; ammonium bicarbonate 0.1 M; 180 µM, 7 days, pH 9.0, 37 °C, deamidation stability): 79.5 ± 0.6%
Clc1ccc(-c2cc(Cl)c(Cl)c(Cl)c2Cl)cc1Cl  log K(PDMS-water) (fresh water; 20 °C, SSP sampler, 100 µm): 6.17 ± 0.11
CC(C)(c1ccccc1)c1cc(-n2nc3ccccc3n2)c(O)c(C(C)(C)c2ccccc2)c1  mean daily dermal uptake (exposure assessment; human, age 21-60 years; spray sunscreen): 9.38 ng/kg body weight/day
O=C1Nc2cc3[nH]nc(-c4ccncc4)c3cc2CN1Cc1ccccc1  patients with acneiform dermatitis (CTCAE v4.03; advanced solid tumour patients; intravenous, 7.2 mg/kg): 33%
CC(C)C[C@@H]1NC(=O)CNC(=O)[C@H](CC(N)=O)NC(=O)[C@H](CCCCN)NC(=O)[C@H]([C@@H](C)O)NC(=O)[C@@H]2CSSC[C@@H]3NC(=O)[C@H]([C@@H](C)O)NC(=O)CNC(=O)CNC(=O)[C@H](C(C)C)NC(=O)[C@@H]4CSSC[C@H](NC(=O)[C@H]([C@@H](C)O)NC(=O)[C@H](CSSC[C@H](NC(=O)[C@H](C(C)C)NC(=O)[C@@H]5CCCN5C1=O)C(=O)NCC(=O)N[C@@H](CCC(=O)O)C(=O)N[C@@H]([C@@H](C)O)C(=O)N4)NC(=O)CNC(=O)[C@@H]1CCCN1C(=O)[C@H]([C@@H](C)O)NC(=O)[C@H](CC(N)=O)NC3=O)C(=O)N[C@@H](CO)C(=O)N[C@@H](Cc1c[nH]c3ccccc13)C(=O)N1CCC[C@H]1C(=O)N[C@@H](C(C)C)C(=O)N2  remaining peptide (HPLC; ammonium bicarbonate; 180 µM, 14 days, pH 9.0, 25 °C, deamidation stability): 91.3 ± 0.5%
Cc1ccc2c(c1)C(=O)C1(O)CCN(c3ccccc3)C1=N2 (stereo not drawn)  parent remaining (aqueous solution; 24 h, kept in dark): > 99%
C=CC(=O)Nc1cc(Nc2nccc(Nc3cc(Cl)c(F)cc3C(C)(C)O)n2)c(OC)cc1N1CC[C@@H](N(C)C)C1  patients with AST increased (human patients; oral, 400 mg, treatment-emergent adverse events): 20%
CC(=O)c1c(C)c2cnc(Nc3ccc(C4CCN(CCS(C)(=O)=O)CC4)cn3)nc2n(C2CCCC2)c1=O  patients with serious AE (HR+/HER2- advanced breast cancer patients; oral, 200 mg): 0%
CC/C(=C(\c1ccccc1)c1ccc(OCCN(C)C)cc1)c1ccccc1  elimination rate constant (CD-1 mouse, male, plasma; intraperitoneal, 30 mg/kg): 2.15e-05 s⁻¹
COc1cc(C2C3=C(COC3=O)N(CCO)c3cc4c(cc32)CCC4)cc(OC)c1OC (stereo not drawn)  body weight (female Sprague-Dawley rats; intraperitoneal, 100 mg/kg, 48 h, single dose, mean): 210 g
COc1ccnc(C(=O)N[C@H]2COC(=O)[C@H](Cc3ccccc3)[C@@H](OC(=O)C(C)C)[C@H](C)OC2=O)c1OCOC(=O)C(C)C  DT50 (aerobic dark soil incubation; sandy loam soil; 20 °C, modelling endpoint): 4.58 days
C[C@H]1C[C@@H](N2C(=N)N[C@](C)(c3cccc(NC(=O)c4cccc(C#N)c4)c3Cl)CC2=O)CCO1  reticulocytes count change (rat; 1000 mg/kg, every other day): -41%
C[C@]1(CO)Cc2ncn(-c3ccc(C#N)c(Cl)c3)c2C(=O)O1  AUC(0-inf) (healthy Japanese adults, plasma; 3 mg single dose): 1.08 µM·h
CC[C@H](C)[C@@H]1NC(=O)[C@@H]2CSSC[C@H](NC(=O)[C@H](CCCNC(=N)N)NC(=O)[C@@H]3CSSC[C@H](NC1=O)C(=O)N[C@@H]([C@@H](C)O)C(=O)N[C@@H](CCCNC(=N)N)C(=O)NCC(=O)N[C@@H](Cc1ccccc1)C(=O)N3)C(=O)N[C@@H](CC(C)C)C(=O)N[C@H]1CSSC[C@H](NC(=O)[C@H](C(C)C)NC(=O)CNC(=O)[C@H](CCCNC(=N)N)NC(=O)[C@H](CCCNC(=N)N)NC1=O)C(=O)N[C@@H](CCCNC(=N)N)C(=O)N2  lung eosinophilic infiltration score (Sprague-Dawley rat, male, lung; 10 mg/kg, perivascular, peribronchiolar; direction not given): 1 to 3
CN[C@H]1CC[C@@H](c2ccc(Cl)c(Cl)c2)c2ccccc21  Tmax (CD-1 mouse, male, plasma; intraperitoneal, 30 mg/kg): 1 h
O=C(O)CCCOc1ccc(F)cc1-c1cc(-c2ccccc2C(F)(F)F)n(-c2ccccc2)n1  leukocyte differential (refers to: Lymphocytes; Crl:CD(SD) rats, female, blood; iv, 25 µg/kg, 1 day): 81.2 ± 4.2%
CC(C)[C@H](N)C(=O)NCCCS(=O)(=O)O  AUC(0-12h) (human, APOE4 carrier Alzheimer's disease, plasma; oral, 265 mg twice daily, 2 weeks, steady state): 11100 ng·h/mL
CO[C@H]1C[C@@H]2CC[C@@H](C)[C@@](O)(O2)C(=O)C(=O)N2CCCC[C@H]2C(=O)O[C@H]([C@H](C)C[C@@H]2CC[C@@H](OC(=O)NCCOCCOCCOCCOCCOCCOCCOCCOCCC(=O)N3CCc4cc(Cn5nc(-c6ccc7oc(N)nc7c6)c6c(N)ncnc65)ccc4C3)[C@H](OC)C2)C[C@@H](O)[C@H](C)/C=C(\C)[C@@H](O)[C@@H](OC)C(=O)[C@H](C)C[C@H](C)/C=C/C=C/C=C/1C  nausea TEAE incidence (dose-escalation trial; patients with advanced solid tumours; intravenous, all doses weekly, any grade): 53%
CN1CCN(S(=O)(=O)c2cc([N+](=O)[O-])ccc2N(CCOS(C)(=O)=O)CCOS(C)(=O)=O)CC1  concentration (NSG mice female, brain; intraperitoneal, 10 mg/kg, 0.25 h): 130 nM
COc1cc2c(Oc3ccc4[nH]c(C)cc4c3F)ccnc2cc1OCC1(N)CC1  grade 3 Hypertension (paediatric recurrent refractory sarcoma; 10 mg): 0%
CCN1[C@@H](C(=O)NC23CCC(C(=O)O)(CC2)CC3)[C@H](c2cccc(Cl)c2F)[C@]2(C(=O)Nc3cc(Cl)ccc32)C12CCCCC2  grade 3/4 lymphocytopenia incidence (patients with advanced solid tumours; oral, dose not given, all doses): 33.3%
